Published values collected from several papers.
Every numbered part comes from another study and shows a few of its results, in no order. Positions count from the first letter of the parent shown.

Series 1 — technique: protein binding microarray; molecule type: double-stranded DNA, one strand shown; sample: in vitro; tested at: not given; baseline: not given; direction: higher = stronger binding; quantity: E-score
Target: Histone acetyltransferase KAT6A, winged helix 1, GST fusion (KAT6A, Homo sapiens, UniProt Q92794, residues 1-85)
Setting: 8-mer, flanks averaged, mean of 2 arrays, mostly near background
Residues (chain): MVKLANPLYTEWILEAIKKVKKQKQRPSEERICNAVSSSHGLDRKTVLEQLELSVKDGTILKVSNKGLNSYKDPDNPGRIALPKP
ACTTGTGC: -0.0714
GCCGGTTA: 0.262
AGAGCCTG: -0.236
TAAGTTGA: -0.22
ATCTTGGC: -0.2
CCAGACTA: -0.227
GGAGATAA: -0.00767
GAACCGTC: 0.0629
ACATAACG: -0.00072
AGCCGACA: 0.115
AATATGGA: -0.135
GGTCCAAA: -0.147
CCTATATC: -0.0836
CTCGTGTA: -0.0675
TCAACCGA: 0.0908
CATTGGTA: -0.0712
CCAGCCGG: 0.101
CGTCCAAG: 0.113
GAAGCATA: -0.165
ACATGAAA: -0.173
GTACCAAC: -0.062
CTAGCGGC: 0.399
CTAAGTCC: -0.0856

Series 2 — technique: DHFR PCA, deep sequencing; sample: yeast; added: (+)-ABA 4.8 µM; baseline: wild-type fitted maximum; direction: higher = stronger binding; quantity: relative binding score
Target: ABI1, truncated, D143A, DHFR fusion (Arabidopsis thaliana)
Setting: methotrexate growth selection, single substitutions
Parent: PYL1, truncated, DHFR fusion (Arabidopsis thaliana); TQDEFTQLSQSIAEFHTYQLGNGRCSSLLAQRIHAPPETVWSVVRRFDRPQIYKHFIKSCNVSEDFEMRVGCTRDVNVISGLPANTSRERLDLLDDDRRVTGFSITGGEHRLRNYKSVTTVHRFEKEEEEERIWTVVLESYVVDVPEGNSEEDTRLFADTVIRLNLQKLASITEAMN
L91S: -10.5%
F47I: -24.5%
E139R: -3.4%
H122K: -8.66%
K116M: 0.342%
S11A: 76.1%
C25Y: -27%
N165R: 6.87%
S150D: 56.4%
V136S: 0.674%
L8T: 24.4%
H122F: -9.57%
N177P: 83.2%
Q2G: 52.4%
L91C: 26.3%
H122R: 2.63%
E130N: 79%
L8D: -9.02%
W134K: 35.9%
C60H: -5.36%
R99G: 12.1%
L93K: 44.1%
I133D: 96.9%

Series 3 — technique: RNA Bind-n-Seq; molecule type: RNA; sample: in vitro; tested at: 20 nM; setting: 6-mer, flanks averaged, single round; added: 150 mM KCl; baseline: input library; direction: higher = stronger binding; quantity: 6-mer enrichment (R)
Target: TAR DNA-binding protein 43, full length, His tag (TARDBP, Homo sapiens, UniProt Q13148, residues 1-414)
AUCGGC: 0.78
CUGGGC: 1.86
GGACUA: 0.997
UGAUCG: 0.783
GGUAUC: 0.851
UCCAGG: 1.01
CCGGGA: 1.83
AGCCGA: 0.832
ACCCUA: 0.63
AUUGGA: 0.772
UUCAUA: 0.549
CGCCUU: 0.654
CCCGGC: 0.783
UACAUA: 0.587
AAGCCU: 0.632

Series 4 — target: CCNA1, cyclin fold, Cln2 fusion (human); technique: yeast growth competition, sequencing; sample: yeast; setting: weak parent motif; baseline: not given; direction: higher = stronger binding; quantity: normalised enrichment score
Parent: INSM1 docking peptide (human); PKAIRKLHFEDEV; partner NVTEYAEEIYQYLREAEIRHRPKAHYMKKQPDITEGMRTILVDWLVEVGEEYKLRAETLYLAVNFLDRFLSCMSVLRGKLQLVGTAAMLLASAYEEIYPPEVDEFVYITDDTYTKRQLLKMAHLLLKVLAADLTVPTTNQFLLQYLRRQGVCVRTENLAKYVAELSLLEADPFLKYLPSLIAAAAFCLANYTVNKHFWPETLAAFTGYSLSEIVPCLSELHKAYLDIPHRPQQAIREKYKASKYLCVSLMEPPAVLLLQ
A3E: -0.114
H8N: 1.24
R5V: -0.0884
I4P: 0.397
D11F: 0.734
F9S: 0.101
L7H: 0.165
A3I: 0.0745
D11L: 0.419
K2F: 0.124
K6M: 0.364
H8Q: 0.608
I4G: 0.16
K2E: 0.282
K2M: 0.184
R5S: 0.183
A3W: -0.691
L7S: 0.32
F9C: -0.0648
E10I: 0.186
K6G: -0.00132
H8K: 0.631
K6R: 0.848
L7Y: 0.0947
I4D: -0.139

Series 5 — technique: RNA Bind-n-Seq; molecule type: RNA; sample: in vitro; tested at: not given; baseline: input RNA pool; direction: higher = stronger binding; quantity: bound/input enrichment
Target: RING finger protein unkempt homolog, zinc fingers 1-6, GST-SBP tag (UNK, Homo sapiens, UniProt Q9C0B0, residues 30-357)
Setting: RNA with constant flanks, human and mouse sites, ends assumed
Target sequence (chain): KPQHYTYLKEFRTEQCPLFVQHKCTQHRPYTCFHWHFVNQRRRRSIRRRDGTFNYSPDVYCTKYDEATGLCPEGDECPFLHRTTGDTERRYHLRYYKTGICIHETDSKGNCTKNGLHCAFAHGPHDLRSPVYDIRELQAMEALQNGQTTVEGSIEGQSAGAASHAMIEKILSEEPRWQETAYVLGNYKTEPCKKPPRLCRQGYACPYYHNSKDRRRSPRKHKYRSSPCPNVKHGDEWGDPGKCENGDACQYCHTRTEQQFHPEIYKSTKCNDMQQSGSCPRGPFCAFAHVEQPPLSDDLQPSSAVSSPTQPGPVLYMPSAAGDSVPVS
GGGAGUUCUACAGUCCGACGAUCGACUGGAAGAACUCCAAUCUUGACAGACACAAUCUCCAAGACUUCAUCAAUAUUAAACUCAAUUCAGCUUCUAUCUUGCCAGAAAUGGAAGGACUUUCUGAGUUUACCGAGUAUCUCUCACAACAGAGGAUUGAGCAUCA: 0.133 ratio
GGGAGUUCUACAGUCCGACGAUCGCAAAACCUUUGCUAGCAAAGCGCCUUUUGUGCCGGGCUGUGGCUCGCUAUCGACAUCUCGUCCGUUACCAAGGCUGGGUUUCCUACUGAUUUCCCUCCUCCUCUGCUUUCACAGGCUCGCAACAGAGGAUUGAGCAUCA: 0.143 ratio
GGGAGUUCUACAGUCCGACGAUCAAUAUCAAGAACAAGGUGAUGGUCAAUCAAGACAGAGCCAGUCAGCAAAUCAACGCGCUGCGGAGCGAGAUCACGCGCCUUCAGAUGGAGCUCAUGGAAUACAAAACCGGUAAAAGAAUACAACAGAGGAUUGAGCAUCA: 0.171 ratio
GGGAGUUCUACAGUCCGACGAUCCCCCCGGCGGCCGGCUUCCUGUACUGGGUGGGCGCGAGCACCAUUGCCUACCUGGCCCUGCGAGCCUCGUACUCGCUCUUCAGGGCCUUCCAGGUGUGGUGCGUGGGCAACGAGGCCUUGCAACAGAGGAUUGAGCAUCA: 0.121 ratio
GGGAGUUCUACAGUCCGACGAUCAACAGACUUGUAAACUCUGGGAUCUACAAGGCAGCUUUCCCACUCCAUGAUUGCAAAUUCCGCCGUCAGUCAGAGGAUCCCAGCUGCCCUAAUGAACGGUACCUUCUGUACAGAGAAUGGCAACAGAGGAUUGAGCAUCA: 0.0845 ratio
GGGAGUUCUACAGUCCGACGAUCAAAGUGGACUAUGGCGAGUACAUGGAUAAAAACAAUGUGAGGCGGCAAGCAACAACAAUCAUAGCUGAUAACAUUAUAUUUCUGAGUGACCAGACAAAAGAAAAGGCAUAGAACGGAUGACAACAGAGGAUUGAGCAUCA: 2.91 ratio
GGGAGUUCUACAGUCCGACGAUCAAAGAGAUGAUUAAGAAGGCAAAAAAACUGAUUGAGACCACAGCCAACAUGAACUCCAGUUAUGUUAAAUUUUUAAAGCAGGCAACAGAUAAUUCAGAAAUCAGUUCUGCUACAAAAUUACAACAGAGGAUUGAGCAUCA: 0.356 ratio
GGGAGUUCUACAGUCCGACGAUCUUCCUCCUGAGCCAUGAGCAGUUUGAGCUUACAACACAGACCUGGCAGGAAUUCCCAGAUGAAUCAAGAAAGUAGCUUGCAACCCCAGGAGUGUGAAUCUGAUGUCUCUGCAGAUCACUUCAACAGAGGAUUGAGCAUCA: 0.213 ratio
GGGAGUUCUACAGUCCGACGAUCAUUUUUGGGAAGGUGCAAGGGGUGUUUUUCCGUAAGCAUACUCAGGCUGAGGGUAAAAAGCUGGGAUUGGUAGGCUGGGUCCAGAACACUGACCGGGGCACAGUGCAAGGACAAUUGCAACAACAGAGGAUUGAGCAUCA: 0.56 ratio
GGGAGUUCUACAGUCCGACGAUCGAAAAAGGUUGAUCUCACACACCUGGAGGGUGAAGUGGAAAAAAGAAAGCACGCUAUCGAAGAGGCAAAGGCCCAAGCCCGGGGCCUGUUGCCUGGGGGCACACAGGUGCUGGAUGGUACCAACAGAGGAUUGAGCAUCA: 0.34 ratio
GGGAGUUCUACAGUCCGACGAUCCUUUUUGAAUCUUUCAAGAGUUUUGAAGGUCUCUUUUAUUUUCUGGGAUCCAUUGUUAACUUUAGCCAGGACCCAGAUGUGCACUUUAAAUAUAUUCAGGCAGCUUGCAAGACUGGGCAACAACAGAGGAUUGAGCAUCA: 0.4 ratio

Other studies, line by line
PhoQ, residues 284 288 289 292 302 303 ASTSDA — fold induction (PhoP, residues 12 14 15 18 19 LWHVM (Escherichia coli, UniProt P23836); Sort-seq, measured: YFP reporter; E. coli; PhoQ-PhoP variant library, added: 10 µM Mg2+; baseline: high Mg2+ state, higher = stronger signaling): 7.97

For quick reference, copied from above (series 1):
GGAGATAA: -0.00767
ATCTTGGC: -0.2
GAAGCATA: -0.165
CTAGCGGC: 0.399
AGCCGACA: 0.115
TCAACCGA: 0.0908
TAAGTTGA: -0.22
CCAGACTA: -0.227
GGTCCAAA: -0.147
ACATAACG: -0.00072
GCCGGTTA: 0.262
CTAAGTCC: -0.0856
CGTCCAAG: 0.113
AGAGCCTG: -0.236
